{"data": "Measurements from different studies", "note": "Numbered parts are unrelated; each lists some results of a single study. Substitutions count along the parent as printed."}
{"data": "Sample 1", "target": "TAR DNA-binding protein 43, full length, His tag (TARDBP, Homo sapiens, UniProt Q13148, residues 1-414)", "method": "RNA Bind-n-Seq", "form": "RNA", "matrix": "in vitro", "tested at": "20 nM", "notes": "6-mer, flanks averaged, single round", "with": "150 mM KCl", "relative to": "input library", "reading": "higher = stronger binding"}
{"Sequence": "CGCCCA", "6-mer enrichment (R)": 0.676}
{"Sequence": "UAGGUA", "6-mer enrichment (R)": 0.78}
{"Sequence": "GAAUCA", "6-mer enrichment (R)": 0.671}
{"Sequence": "CGGUUG", "6-mer enrichment (R)": 1.18}
{"Sequence": "CUGUCG", "6-mer enrichment (R)": 0.785}
{"Sequence": "AAUCUC", "6-mer enrichment (R)": 0.552}
{"Sequence": "AGUUGA", "6-mer enrichment (R)": 0.768}
{"Sequence": "CGACCU", "6-mer enrichment (R)": 0.623}
{"data": "Sample 2", "target": "Cellular tumor antigen p53, full length (TP53, Homo sapiens, UniProt P04637, residues 1-393)", "method": "protein-binding microarray", "form": "hairpin DNA", "matrix": "in vitro", "tested at": "not given", "notes": "whole hairpin DNA, median over replicate spots", "relative to": "not given", "reading": "higher = stronger binding"}
{"Sequence": "CGGACATGCCCGGGCATGTCTCCTGACATGCCCGGGCATGTCCGACACTC (5mC at 10)", "median fluorescence [a.u.]": 19500}
{"Sequence": "CCACACGTGGTGGCCTGCCTTCCTAGGCAGGCCACCACGTGTGGACACTC (5mC at 15)", "median fluorescence [a.u.]": 3510}
{"Sequence": "CCACACGTGGTCGCATGCCTTCCTAGGCATGCGACCACGTGTGGACACTC (5mC at 12)", "median fluorescence [a.u.]": 5720}
{"Sequence": "CCACACGTGGGGGCATGCCTTCCTAGGCATGCCCCCACGTGTGGACACTC (5mC at 34)", "median fluorescence [a.u.]": 9140}
{"Sequence": "CGGACATGCCCCGGCATGTCTCCTGACATGCCGGGGCATGTCCGACACTC", "median fluorescence [a.u.]": 15600}
{"Sequence": "CCACACGGGGTGGCATGCCTTCCTAGGCATGCCACCCCGTGTGGACACTC", "median fluorescence [a.u.]": 6470}
{"Sequence": "CCACACGTGGTGGCATGCCTTCCTAGGCATGCCACCACGTGTGGACACTC (5mC at 35)", "median fluorescence [a.u.]": 7630}
{"Sequence": "CGGACATGCCCCGGCATGTCTCCTGACATGCCGGGGCATGTCCGACACTC (5mC at 12)", "median fluorescence [a.u.]": 16400}
{"data": "Sample 3", "target": "Histone acetyltransferase KAT6A, winged helix 1, GST fusion (KAT6A, Homo sapiens, UniProt Q92794, residues 1-85)", "method": "protein binding microarray", "form": "double-stranded DNA, one strand shown", "matrix": "in vitro", "tested at": "not given", "notes": "8-mer, flanks averaged, mean of 2 arrays, mostly near background", "relative to": "not given", "reading": "higher = stronger binding", "Residues (chain)": "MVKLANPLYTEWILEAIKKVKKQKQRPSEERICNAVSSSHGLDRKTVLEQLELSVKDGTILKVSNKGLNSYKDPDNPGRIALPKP"}
{"Sequence": "CTATATCA", "E-score": -0.06}
{"Sequence": "AAACGCGA", "E-score": 0.128}
{"Sequence": "AACTAACC", "E-score": -0.00392}
{"Sequence": "GTCATCAA", "E-score": -0.0572}
{"Sequence": "GCCCACGA", "E-score": -0.144}
{"Sequence": "GTAGACAA", "E-score": -0.0452}
{"Sequence": "TAAGTTCA", "E-score": -0.166}
{"Sequence": "ACTACCAT", "E-score": -0.241}
{"data": "Mixed results", "starting sequence": "PafA, mature enzyme, eGFP fusion (Elizabethkingia meningoseptica, UniProt Q9KJX5); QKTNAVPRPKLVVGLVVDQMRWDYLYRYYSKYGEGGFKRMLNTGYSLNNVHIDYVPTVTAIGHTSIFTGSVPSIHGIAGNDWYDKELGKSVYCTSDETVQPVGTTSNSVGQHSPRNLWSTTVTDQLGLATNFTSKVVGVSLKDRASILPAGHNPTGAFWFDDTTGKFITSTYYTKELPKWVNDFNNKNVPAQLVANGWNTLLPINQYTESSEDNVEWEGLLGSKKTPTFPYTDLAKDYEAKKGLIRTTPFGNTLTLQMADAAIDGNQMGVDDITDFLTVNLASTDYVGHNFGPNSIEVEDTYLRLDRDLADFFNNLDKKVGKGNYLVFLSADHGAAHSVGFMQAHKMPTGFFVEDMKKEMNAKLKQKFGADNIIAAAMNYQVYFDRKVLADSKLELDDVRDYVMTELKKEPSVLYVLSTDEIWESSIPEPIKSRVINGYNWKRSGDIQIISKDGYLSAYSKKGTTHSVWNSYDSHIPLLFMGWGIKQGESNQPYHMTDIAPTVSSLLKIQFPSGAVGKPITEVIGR"}
{"Substitution": "S460V", "target": "vanadate, free oxyanion", "test": "microfluidic competitive inhibition", "test system": "in vitro, cell-free expressed", "conditions": "not given, derived from inhibition constants, unchanged parent 676 nM", "how to read": "lower = stronger binding", "measurement": "oxyanion analog dissociation constant", "result": "0.706 µM"}
{"note": "Some of these lines once more (sample 1):"}
{"Sequence": "AGUUGA", "6-mer enrichment (R)": 0.768}
{"Sequence": "AAUCUC", "6-mer enrichment (R)": 0.552}
{"Sequence": "CGCCCA", "6-mer enrichment (R)": 0.676}
